Measured values gathered from unrelated publications.
Lines come from different studies, so protocols differ. ± marks the error that the study gave.

`CN1C(=O)[C@@H](Cc2ccc(O)c(I)c2)NC(=O)CNC(=O)[C@H](Cc2ccc3ccccc3c2)NC(=O)[C@H](CCCNC(=N)N)NC(=O)[C@H]1CCCNC(=O)c1ccc(CNC(=O)CN2CCN(CC(=O)O)CCN(CC(=O)O)CCN(CC(=O)O)CC2)cc1` [lutetium-177 labelled] has a tissue uptake of 0.095 ± 0.008 %ID/g (refers to: 177Lu radioactivity; female CB-17 SCID mice, Daudi xenograft, skin; intravenous, 0.16 nmol per mouse, 96 h).
For `CC(C)[C@H](NC(=O)[C@@H]1CCCN1C(=O)[C@H](CCCNC(=N)N)NC(=O)[C@H](CS)NC(=O)[C@H](Cc1c[nH]c2ccccc12)NC(=O)[C@H](CCCNC(=N)N)NC(=O)[C@@H](Cc1ccccc1)NC(=O)[C@H](Cc1c[nH]cn1)NC(=O)[C@H](CCC(=O)O)NC(=O)[C@H](CS)NC(=O)[C@H](CS)NC(=O)[C@@H]1CC(=O)N[C@@H](CCCNC(=N)N)C(=O)NCC(=O)N[C@@H](CC(=O)O)C(=O)N[C@H](Cc2ccc(O)cc2)C(=O)N1)C(N)=O` [technetium-99m labelled], the tissue uptake was 23.9 ± 1.45 %ID/g (C57 mice B16/F1 melanoma female, kidneys; iv, 0.037 MBq, 2 h).
The tissue uptake of `CCCC[C@H](NC(=O)CN1CCC(NC(=O)CN2CCN(CC(=O)O)CCN(CC(=O)O)CCN(CC(=O)O)CC2)CC1)C(=O)N[C@H]1CC(=O)NCCCC[C@@H](C(N)=O)NC(=O)[C@H](Cc2c[nH]c3ccccc23)NC(=O)[C@H](CCCNC(=N)N)NC(=O)[C@@H](Cc2ccccc2)NC(=O)[C@H](Cc2c[nH]cn2)NC1=O` [gallium-68 labelled] is reported as 0.2 %ID/g (C57BL/6J mice male B16-F10 tumour, blood; 2 h post injection, unblocked).
For `CCCC[C@H](NC(=O)CNC(=O)CNC(=O)CN1CCN(CC(=O)O)CCN(CC(=O)O)CC1)C(=O)N[C@H]1CC(=O)NCCCC[C@@H](C(N)=O)NC(=O)[C@H](Cc2c[nH]c3ccccc23)NC(=O)[C@H](CCCNC(=N)N)NC(=O)[C@@H](Cc2ccccc2)NC(=O)[C@H](Cc2c[nH]cn2)NC1=O` [gallium-67 labelled], the tissue uptake was 0.08 ± 0.02 %ID/g (female C57 mice, B16/F1 melanoma, brain; intravenous, 0.037 MBq, 24 h).
With `O=C(NCC1OC2CCC=CCCC2O1)c1ccc(COCCOCCOCC[18F])cc1` (stereo not shown) the tissue uptake was 6.3 ± 0.2 %ID/g (female BALB/c nude mice, liver; intravenous, 15 min).
The tissue uptake of `N=C(N)NCCC[C@@H]1NC(=O)[C@H](CCCCNC(=O)CON=C[C@H](F)[C@@H](O)[C@H](O)[C@H](O)CO)NC(=O)[C@@H](Cc2ccc(O)cc2)NC(=O)[C@H](CC(=O)O)NC(=O)CNC1=O` [fluorine-18 labelled] is reported as 0.84 ± 0.19 %ID/g (nude mice U-87 MG tumour, blood; intravenous, 1 h).
For `O=C([O-])c1cccc(CN(CCN(Cc2cn(Cc3ccccc3)nn2)Cc2cccc(C(=O)[O-])n2)Cc2cn(Cc3ccccc3)nn2)n1.[64Cu+2]`, the tissue uptake was 1.27 %ID/g (healthy athymic nude mice, muscle; intravenous, 15 min).
For `NC12CNCCNCC(NCc3ccc(CNC(=O)CCCC(=O)NCc4ccc(-c5nncnn5)cc4)cc3)(CNCCNC1)CNCCNC2.[64Cu+2]`, the tissue uptake was 0.88 ± 0.09 %ID/g (athymic nude mice, SW1222 xenograft, small intestine with contents; 1 h, pretargeting with huA33-TCO, 24 h interval).
The tissue uptake of `O=C([O-])CN1CCN(CC(=O)[O-])CCN(CC(=O)[O-])CCN(CC(=O)[O-])CC1.[64Cu+2]` is reported as 0.4 %ID/g (healthy athymic nude mice, skin; intravenous, 1 h).
`CCCC[C@@H]1NC(=O)[C@@H](NC(=O)[C@H](CCC(=O)O)NC(=O)CNC(=O)CN2CCN(CC(=O)O)CCN(CC(=O)O)CCN(CC(=O)O)CC2)CCCCNC(=O)C[C@@H](C(N)=O)NC(=O)[C@H](C(C)C)NC(=O)[C@@H]2CCCN2C(=O)[C@H](CCCNC(=N)N)NC(=O)CNC(=O)[C@H](Cc2c[nH]c3ccccc23)NC(=O)[C@H](CCCNC(=N)N)NC(=O)[C@@H](Cc2ccccc2)NC(=O)[C@H](Cc2c[nH]cn2)NC(=O)[C@H](CCC(=O)O)NC1=O` [gallium-67 labelled] gave a tissue uptake of 0.04 ± 0.01 %ID/g (C57 mice, B16/F1 flank melanoma, heart; intravenous, 2 h, added: blocking peptide 10 µg).
With `O=C([O-])CN1CCN(CC(=O)[O-])CCN(CC(=O)NCCc2ccc3c(c2)C2C=CCC2C(c2cc4c(cc2Br)OCO4)N3)CCN(CC(=O)[O-])CC1.[111In+3]` (stereo not shown) the tissue uptake was 0.44 ± 0.03 %ID/g (mice with Hec50 tumour xenograft, mammary gland; 2 h).
The tissue uptake of `CCCC[C@H](NC(=O)CNC(=O)CNC(=O)CN1CCN(CC(=O)O)CCN(CC(=O)O)CCN(CC(=O)O)CC1)C(=O)N[C@H]1CC(=O)NCCCC[C@@H](C(N)=O)NC(=O)[C@H](Cc2c[nH]c3ccccc23)NC(=O)[C@H](CCCNC(=N)N)NC(=O)[C@@H](Cc2ccccc2)NC(=O)[C@H](Cc2c[nH]cn2)NC1=O` [gallium-67 labelled] is reported as 0.34 ± 0.07 %ID/g (female C57 mice, B16/F1 melanoma, pancreas; intravenous, 0.037 MBq, 2 h).
`CC(C)[C@H](NC(=O)[C@@H]1CCCN1C(=O)[C@H](CCCNC(=N)N)NC(=O)[C@H](CS)NC(=O)[C@H](Cc1c[nH]c2ccccc12)NC(=O)[C@H](CCCNC(=N)N)NC(=O)[C@@H](Cc1ccccc1)NC(=O)[C@H](Cc1c[nH]cn1)NC(=O)[C@H](CCC(=O)O)NC(=O)[C@H](CS)NC(=O)[C@H](CS)NC(=O)CNC(=O)[C@@H]1CC(=O)N[C@@H](CCCNC(=N)N)C(=O)NCC(=O)N[C@@H](CC(=O)O)C(=O)N[C@H](Cc2ccc(O)cc2)C(=O)N1)C(N)=O` [technetium-99m labelled] has a tissue uptake of 2.57 ± 1.39 %ID/g (C57 mice B16/F1 melanoma female, tumor; iv, 2 h, added: NDP-MSH 10 µg co-injected).

Some of these lines once more:
The tissue uptake of `CCCC[C@H](NC(=O)CN1CCC(NC(=O)CN2CCN(CC(=O)O)CCN(CC(=O)O)CCN(CC(=O)O)CC2)CC1)C(=O)N[C@H]1CC(=O)NCCCC[C@@H](C(N)=O)NC(=O)[C@H](Cc2c[nH]c3ccccc23)NC(=O)[C@H](CCCNC(=N)N)NC(=O)[C@@H](Cc2ccccc2)NC(=O)[C@H](Cc2c[nH]cn2)NC1=O` [gallium-68 labelled] is reported as 0.2 %ID/g (C57BL/6J mice male B16-F10 tumour, blood; 2 h post injection, unblocked).
